Experimental data pooled from the literature.
Each numbered part is a random draw from the data of one study; scales do not carry over between parts.

Series 1 — technique: protein-binding microarray; form: double-stranded DNA, one strand shown; medium: in vitro; tested at: 2200 nM top; notes: 60-bp whole probe; added: salmon DNA 0.4 mg/ml; baseline: random background probes; reading: higher = stronger binding; shared flanks, not repeated: GCCTAGCAC … GTCTTGATTCGCTTGACGCTGCTG
Target: Interferon regulatory factor 7, full length, phosphomimetic (IRF7, Homo sapiens, UniProt Q92985, residues 1-503, S471D/S472D/S475D/S476D/S477D/S483D/S484D/S487D)
Sequence of UniProt Q92985 (whole entry, unmodified, looked up): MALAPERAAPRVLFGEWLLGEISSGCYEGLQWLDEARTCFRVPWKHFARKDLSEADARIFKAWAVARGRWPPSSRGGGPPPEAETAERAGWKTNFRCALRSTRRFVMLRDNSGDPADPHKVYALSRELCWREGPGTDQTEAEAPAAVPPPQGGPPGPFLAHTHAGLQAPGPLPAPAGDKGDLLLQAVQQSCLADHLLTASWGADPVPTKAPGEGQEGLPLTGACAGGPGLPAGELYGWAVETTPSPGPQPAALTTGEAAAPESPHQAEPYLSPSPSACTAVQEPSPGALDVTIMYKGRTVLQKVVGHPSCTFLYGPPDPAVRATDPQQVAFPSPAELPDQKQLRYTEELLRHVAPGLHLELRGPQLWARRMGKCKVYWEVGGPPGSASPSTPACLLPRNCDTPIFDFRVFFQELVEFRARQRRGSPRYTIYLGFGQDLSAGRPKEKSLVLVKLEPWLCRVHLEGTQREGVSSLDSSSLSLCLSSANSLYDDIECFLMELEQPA
Oligonucleotide	fitted relative affinity [z-score]
TCATATATATAATATATAACTGTGCTA	0.169
AAGTTTATACCTTAGGTTTTGTGCTAG	0.249
TTAGGTTTCCGTTTCGGTTAGTGCTAG	8.38
TTAGATATCGGTTTTCGATTAGTGCTA	3.85
GACGATCTCCTACTGCTGACGTGCTAG	1.1
GACGGTATCGGGACTGGGGACGTGCTA	-0.543

Series 2 — technique: universal PBM; form: double-stranded DNA, one strand shown; medium: in vitro; tested at: not given; reading: higher = stronger binding
Target: Sal-like protein 4, full length isoform B (SALL4, Homo sapiens, UniProt Q9UJQ4-2, residues 1-616)
Notes: 8-mer, flanks averaged, mean of replicates
Residues (chain): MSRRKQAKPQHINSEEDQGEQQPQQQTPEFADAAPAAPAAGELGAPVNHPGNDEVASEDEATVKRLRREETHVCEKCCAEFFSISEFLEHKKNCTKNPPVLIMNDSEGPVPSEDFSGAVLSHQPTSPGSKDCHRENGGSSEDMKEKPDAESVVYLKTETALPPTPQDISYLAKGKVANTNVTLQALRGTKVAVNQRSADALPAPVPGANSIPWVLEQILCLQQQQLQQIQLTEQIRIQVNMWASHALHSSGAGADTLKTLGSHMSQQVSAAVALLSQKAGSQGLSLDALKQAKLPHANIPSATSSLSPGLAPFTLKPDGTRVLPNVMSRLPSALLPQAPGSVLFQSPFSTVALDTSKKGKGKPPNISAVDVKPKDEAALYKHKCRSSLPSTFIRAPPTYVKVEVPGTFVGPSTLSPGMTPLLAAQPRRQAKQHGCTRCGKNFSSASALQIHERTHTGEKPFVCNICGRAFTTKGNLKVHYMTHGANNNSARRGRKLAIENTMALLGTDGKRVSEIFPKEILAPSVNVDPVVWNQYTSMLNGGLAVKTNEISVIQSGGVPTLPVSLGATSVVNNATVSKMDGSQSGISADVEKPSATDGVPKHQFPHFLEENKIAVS
Oligonucleotide	E-score
GGTCCTGA	-0.331
AGTAAGGC	-0.042
AGCCATCG	-0.165
GCGCAAGC	-0.237
CCGTAAGA	-0.167
GAAGGTGA	-0.0577

Series 3 — technique: RNA Bind-n-Seq; form: RNA; medium: in vitro; tested at: not given; baseline: input RNA pool; reading: higher = stronger binding
Target: RING finger protein unkempt homolog, zinc fingers 1-6, GST-SBP tag (UNK, Homo sapiens, UniProt Q9C0B0, residues 30-357)
Sequence of UniProt Q9C0B0 (30-357, looked up): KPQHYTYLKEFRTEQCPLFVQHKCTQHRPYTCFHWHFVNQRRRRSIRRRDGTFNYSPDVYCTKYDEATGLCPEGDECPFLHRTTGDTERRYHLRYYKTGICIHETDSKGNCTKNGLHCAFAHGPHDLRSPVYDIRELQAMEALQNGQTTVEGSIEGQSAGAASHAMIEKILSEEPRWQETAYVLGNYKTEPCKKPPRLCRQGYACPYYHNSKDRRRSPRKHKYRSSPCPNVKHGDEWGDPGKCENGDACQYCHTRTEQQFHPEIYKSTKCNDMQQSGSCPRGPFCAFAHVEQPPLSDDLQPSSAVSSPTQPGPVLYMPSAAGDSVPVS
Notes: RNA with constant flanks, human-mouse chimeric sites, ends assumed
Oligonucleotide	bound/input enrichment
GGGAGUUCUACAGUCCGACGAUCCUUAAUGUUAAUAUUUUUGAAUAAAUGAAGCUAAAAUGUCUGCUUUUGGUACAACACGCAUUAAUAAAAGGUUAAGUAAGUUUUGUUACUGAAGUACUAUUUAACAUCUCAGAAAAAAACCAACAGAGGAUUGAGCAUCA	0.687 ratio
GGGAGUUCUACAGUCCGACGAUCCAGCUGCGAGGCCGCGGUUUCCCCCUGGGCCUCCCCAGCAGCAGCCAUGGGCAUCAAAUUUUUAGAAGUUAUCAAACCUUUCUGUGCAGUUCUACCAGAAAUUCAGAAACCGGAAAGGAACAACAGAGGAUUGAGCAUCA	0.801 ratio
GGGAGUUCUACAGUCCGACGAUCACCAUUUCUGAAUACACGGCUUUGUGUGUAGUUCACUUACGGUAUUAAAUUAUUAUUCUGCUUAGCUUAUAAUAAGGAUAAUUGCAUUUAAAGAGGUGAUCACUGAAUACUCUGAAACUUCAACAGAGGAUUGAGCAUCA	0.639 ratio
GGGAGUUCUACAGUCCGACGAUCGAAUCCUACUCAGGCGGAUUUUGCAACACCAAGCUCACAGCAGCAGCAUCUUAGUCACAGUAGGGUAGUUUUGGGGCAAUAUUGCCAGGGUUUUAUUCACAUGCAGGUUUGGAAAAUGUACAACAGAGGAUUGAGCAUCA	3.44 ratio

Series 4 — technique: Sort-seq; measured: YFP reporter; medium: E. coli; notes: PhoQ-PhoP variant library; added: 10 µM Mg2+; baseline: high Mg2+ state; reading: higher = stronger signaling
Molecule: PhoQ, residues 284 288 289 292 302 303 TLSLKA
target	fold induction
PhoP, residues 12 14 15 18 19 TQALL (Escherichia coli, UniProt P23836)	1.8
PhoP, residues 12 14 15 18 19 NYFRM (Escherichia coli, UniProt P23836)	7.76
PhoP, residues 12 14 15 18 19 QYFSL (Escherichia coli, UniProt P23836)	3.54

Excerpt of the above (series 3):
Oligonucleotide	bound/input enrichment
GGGAGUUCUACAGUCCGACGAUCCAGCUGCGAGGCCGCGGUUUCCCCCUGGGCCUCCCCAGCAGCAGCCAUGGGCAUCAAAUUUUUAGAAGUUAUCAAACCUUUCUGUGCAGUUCUACCAGAAAUUCAGAAACCGGAAAGGAACAACAGAGGAUUGAGCAUCA	0.801 ratio
GGGAGUUCUACAGUCCGACGAUCACCAUUUCUGAAUACACGGCUUUGUGUGUAGUUCACUUACGGUAUUAAAUUAUUAUUCUGCUUAGCUUAUAAUAAGGAUAAUUGCAUUUAAAGAGGUGAUCACUGAAUACUCUGAAACUUCAACAGAGGAUUGAGCAUCA	0.639 ratio
GGGAGUUCUACAGUCCGACGAUCGAAUCCUACUCAGGCGGAUUUUGCAACACCAAGCUCACAGCAGCAGCAUCUUAGUCACAGUAGGGUAGUUUUGGGGCAAUAUUGCCAGGGUUUUAUUCACAUGCAGGUUUGGAAAAUGUACAACAGAGGAUUGAGCAUCA	3.44 ratio
